# Experimental data collected from several papers.
# Lines come from different studies, so protocols differ. Values joined by “and” are separate records of one study, mostly repeats; a detail may differ. ± gives the spread as reported.
SMILES,assay,test system,conditions,scale,endpoint,result
Cl.NCc1ccc2c(c1)CN(C1CCC(=O)NC1=O)C2=O (centres unmarked),,"male Sprague-Dawley rat, whole blood",3 h,,remaining compound,80%
Cc1cc(-c2ccc(C(=O)[C@@H]3CCCC[C@H]3C(=O)Nc3cnn4c3C(=O)NCC4)cc2)[nH]n1,,"human, urine","oral, 200 mg, 0-168 h",reference: dose,cumulative recovery of radioactivity,5.89%
C[C@@H]1O[C@@H](O[C@@H]2[C@@H](O)[C@H](O)[C@@H](CO)O[C@H]2c2c(O)cc(O)c3c(=O)cc(-c4ccc(O)cc4)oc23)[C@H](O)[C@H](O)[C@H]1O,,"Sprague-Dawley rat, bile","intravenous, 20 mg/kg, 8 h",,cumulative biliary excretion amount,148 ± 8.01 µg
CCCCN1C(=O)c2cccc3c(NCCCCN4CCOCC4)ccc(c23)C1=O,,dichloromethane,,,fluorescence quantum yield,0.33
CN[C@H](CC(C)C)C(=O)N[C@H]1C(=O)N[C@@H](CC(N)=O)C(=O)N[C@H]2C(=N)N[C@H]3C(=O)N[C@H](C(=O)N[C@H](C(=O)NCCC[N+](C)(C)C)c4cc(O)cc(O)c4-c4cc3ccc4O)[C@H](O)c3ccc(c(Cl)c3)Oc3cc2cc(c3O[C@@H]2O[C@H](CO)[C@@H](O)[C@H](O)[C@H]2O[C@H]2C[C@](C)(NCc3ccc(-c4ccc(Cl)cc4)cc3)[C@H](O)[C@H](C)O2)Oc2ccc(cc2Cl)[C@H]1O,,mouse,"intravenous, 10 mg/kg",,clearance,0.76 mL/min/kg
C=CC(=O)Nc1cc(Nc2nccc(-c3cn(C)c4ccccc34)n2)c(OC)cc1N(C)CCNC,storage stability,human dried blood spots,"5 h, -80 °C, LLOQ level",,recovery,97.8%
CC(C)[C@H](NC(=O)[C@H](Cc1c[nH]c2ccccc12)NC(=O)[C@H](CCCNC(=N)N)NC(=O)[C@H](CCCNC(=N)N)NC(=O)[C@@H](NC(=O)[C@@H](NC(=O)[C@H](CCCNC(=N)N)NC(=O)[C@@H](NC(=O)[C@@H](NC(=O)[C@H](CCCNC(=N)N)NC(=O)[C@H](CCCNC(=N)N)NC(=O)[C@@H](NC(=O)[C@H](Cc1c[nH]c2ccccc12)NC(=O)[C@H](CCCNC(=N)N)NC(=O)[C@H](CCCNC(=N)N)NC(=O)[C@@H](NC(=O)[C@H](CCCNC(=N)N)NC(=O)[C@H](CCCNC(=N)N)NC(=O)[C@@H](NC(=O)[C@H](Cc1c[nH]c2ccccc12)NC(=O)[C@H](CCCNC(=N)N)NC(=O)[C@@H](N)CCCNC(=N)N)C(C)C)C(C)C)C(C)C)C(C)C)C(C)C)C(C)C)C(C)C)C(=O)N[C@@H](CCCNC(=N)N)C(=O)N[C@@H](CCCNC(=N)N)C(=O)O,,CD-1 mice,"intravenous, 15 mg/kg, 6-24 h",,urinary glucose excretion,114 µg/day/g body weight
Cc1[nH]c(=O)c(CNC(=O)c2cc(Cl)c3c(c2C)O[C@@](C)([C@H]2CC[C@H](N(C)C)CC2)O3)c(C)c1O,,"human, plasma","oral, 200 mg, up to 0008 (unit not given)",,share of plasma radioactivity,1.1%
C=C(NC(=O)c1csc(-c2nc3c(cc2O)-c2nc(cs2)C(=O)NC(C(C)O)C(=O)NC(=C(C)OC)c2nc(cs2)C(=O)NC2c4nc(cs4)C(=O)NC(COC(=O)c4c5c6c(cccc6n4O)COC(=O)C(OC4CC(C)(O)C(N(C)C)C(C)O4)C2OC5)c2nc-3cs2)n1)C(N)=O (centres unmarked),,"ICR mice, Streptococcus pneumoniae ATCC 49169 infected, immunocompromised, blood","intravenous, 4 mg/kg/day twice daily",,MRT(0-t),3.2 h
CC(C)(O)c1ncc([S@](N)(=O)=NC(=O)Nc2c3c(cc4c2CCC4)CCC3)s1,item: Psychiatric disorders,healthy human volunteers,"oral, 200 mg once daily, 14 days, spray-dried dispersion",,subjects with adverse events,14%
O=C(Nc1cnccc1-c1ccc([18F])cc1)c1ccnc(NC(=O)C2CC2)c1,ex vivo gamma counting,"FVB/NJ mice, both sexes, cecum","intravenous, 120 min, together with: tariquidar 15 mg/kg iv",,mean SUV,1.93
CCCCN1C(=O)c2cccc3c(NCCCCCCCCN4CCOCC4)ccc(c23)C1=O,,acetonitrile,,,fluorescence lifetime,10.3 ns
CCC(=O)N(C)c1ccc(Cl)c(Cl)c1,LC-MS/MS,"mouse C57BL/6 female, plasma","intravenous, 2 mg/kg, 0.5 h",,plasma concentration,184 ng/mL and 214 ng/mL
CN1CCC[C@]1(C)/C=C/S(=O)(=O)NC(=O)Nc1c2c(cc3c1CCC3)CC=C2,,"human, plasma","oral, 100 mg twice daily of parent drug, day 14, metabolite of dosed drug",,AUC(0-tau),501 µg·h/mL
O=C(NCc1ccc2c(c1)CN(C(=O)c1cc(-c3ccccc3)no1)C2)C1C=CC=CC=C1,,CD-1 mouse liver microsomes,"pH 7.4, together with: NADPH",,"intrinsic clearance, scaled",254 mL/min/kg
O=C(Nc1cnccc1-c1ccc([18F])nc1)c1ccnc(NC(=O)C2CC2)c1,,"FVB/NJ mice, both sexes, liver","intravenous, 15 min, median, P-gp inhibitor pretreatment, together with: tariquidar 15 mg/kg iv",,SUV,8.68
C[N+](C)(CCOCCOCCOCCNC(=S)Nc1ccc(C[C@H]2CN(CC(=O)[O-])CCN(CC(=O)[O-])CCN2CC(=O)[O-])cc1)C[c-]1cccc1.[64Cu+2].[Fe+2].c1cc[cH-]c1,,"nude mice, BxPC-3 xenograft, tumour","24 h, no pretargeting",,tumour uptake,0.1 %ID/g
Cc1c(Cc2cccc(OC(C)(C)C(=O)O)c2)c2ccc(C(=O)N[C@H](C)c3cccc(C(C)(C)C)c3)cc2n1C,metabolic stability,"mouse, liver microsomes",,,half-life,0.522 h
N=C(N)NCCC[C@@H]1NC(=O)[C@H](CO)NC(=O)[C@@H](NC(=O)[C@H](CO)NC(=O)[C@H](CO)NC(=O)[C@H](Cc2c[nH]c3ccccc23)NC(=O)CNC(=O)[C@H](CO)NC(=O)[C@@H](N)Cc2c[nH]c3ccccc23)CSSC[C@@H](C(=O)NCC(=O)O)NC(=O)[C@H](CO)NC1=O,,"patients, plasma","intravenous, 10 mg/kg, thrice weekly, median",,clearance,850 L/h
CN([O-])C(=O)CN1CCNCCN(CC(=O)N(C)[O-])CC1.[89Zr+4],,"mouse, liver","intravenous, 4 h",,tracer uptake,0.19 %ID/g
COc1cccc(OC)c1-c1cc(C(=O)NC2(C(=O)O)C3CC4CC(C3)CC2C4)nn1-c1ccc(C(=O)N(C)CCCN(C)CCCN(C)C(=O)[C@H](CCCCNC(=O)[C@H](CC(C)C)NC(=O)C2OC2C(=O)O)NC(=O)CN2CCN(CC(=O)[O-])CCN(CC(=O)[O-])CCN(CC(=O)[O-])CC2)cc1C(C)C.[177Lu+3] (mixture of isomers),,"mouse, HT-29 xenograft, kidney",168 h post injection,,tissue uptake,3.1 %ID/g
COc1ccc2c(c1)C(C)(C)C(/C=C/C1=C(Oc3ccc(C(=O)NCCCCOc4cc(CN(Cc5ccccn5)Cc5ccccn5)cc(CN(Cc5ccccn5)Cc5ccccn5)c4)cc3)C(=C/C=C3/N(CCCCS(=O)(=O)[O-])c4ccc(OC)cc4C3(C)C)CCC1)=[N+]2CCCCS(=O)(=O)[O-].O=[N+]([O-])[O-].O=[N+]([O-])[O-].[99Tc+].[C-]#[O+].[C-]#[O+].[C-]#[O+].[Zn+2],biodistribution,"BALB/c mouse, healthy",12 h post-injection,,thyroid/trachea uptake,1.14 %ID/g
CCCCN1C(=O)c2cccc3c(NCCCCCCN4CCOCC4)ccc(c23)C1=O,,dioxane,,,absorption maximum,428 nm
CN1CCC[C@]1(C)/C=C/S(=O)(=O)NC(=O)Nc1c2c(cc3c1CC(O)C3)CCC2 (some centres unmarked),,"human, plasma","oral, 50 mg twice daily of parent drug, day 14, metabolite of dosed drug",,AUC(0-tau),55.1 µg·h/mL
CN(O)C(=O)CCC(=O)NCCCN(CCCCN(CCCNC(=O)CCC(=O)N(C)O)C(=O)CCC(=O)N(C)O)C(=O)CCC(=O)N(C)O.[89Zr],radio-TLC,aqueous buffer,"3 d, pH 7.2, 37 °C, 89Zr-labelled complex, together with: FeCl3 10-fold excess",,intact complex,97.8 ± 2.5%
CC(C)(C)[C@H](NC(=O)C(F)F)C(=O)N1C[C@H]2[C@@H]([C@H]1C(=O)N[C@H](C#N)C[C@@H]1CCCNC1=O)C2(C)C,,rat hepatocytes,scaled to liver,,intrinsic clearance,46.6 mL/min/kg

# A few entries again:
SMILES,assay,test system,conditions,scale,endpoint,result
CN1CCC[C@]1(C)/C=C/S(=O)(=O)NC(=O)Nc1c2c(cc3c1CCC3)CC=C2,,"human, plasma","oral, 100 mg twice daily of parent drug, day 14, metabolite of dosed drug",,AUC(0-tau),501 µg·h/mL
C[N+](C)(CCOCCOCCOCCNC(=S)Nc1ccc(C[C@H]2CN(CC(=O)[O-])CCN(CC(=O)[O-])CCN2CC(=O)[O-])cc1)C[c-]1cccc1.[64Cu+2].[Fe+2].c1cc[cH-]c1,,"nude mice, BxPC-3 xenograft, tumour","24 h, no pretargeting",,tumour uptake,0.1 %ID/g
Cc1[nH]c(=O)c(CNC(=O)c2cc(Cl)c3c(c2C)O[C@@](C)([C@H]2CC[C@H](N(C)C)CC2)O3)c(C)c1O,,"human, plasma","oral, 200 mg, up to 0008 (unit not given)",,share of plasma radioactivity,1.1%
C=C(NC(=O)c1csc(-c2nc3c(cc2O)-c2nc(cs2)C(=O)NC(C(C)O)C(=O)NC(=C(C)OC)c2nc(cs2)C(=O)NC2c4nc(cs4)C(=O)NC(COC(=O)c4c5c6c(cccc6n4O)COC(=O)C(OC4CC(C)(O)C(N(C)C)C(C)O4)C2OC5)c2nc-3cs2)n1)C(N)=O (centres unmarked),,"ICR mice, Streptococcus pneumoniae ATCC 49169 infected, immunocompromised, blood","intravenous, 4 mg/kg/day twice daily",,MRT(0-t),3.2 h
